Measured values collected from several papers.
Every numbered part comes from another study and shows a few of its results, in no order.

Series 1 — method: protein-binding microarray; molecule type: double-stranded DNA, one strand shown; medium: in vitro; tested at: 940 nM top; setting: 60-bp whole probe; added: salmon DNA 0.4 mg/ml; baseline: random background probes; direction: higher = stronger binding; constant ends, left off below: GCCTAGCAC … GTCTTGATTCGCTTGACGCTGCTG
Target: Interferon regulatory factor 5, full length, phosphomimetic (IRF5, Homo sapiens, UniProt Q13568-2, residues 1-514, S451D/S453D/S456D/S462D)
| Sequence | fitted relative affinity |
| --- | --- |
| TTAGGTATCGGTATCGGTTCGTGCTAG | 10.5 z-score |
| GGCGGTCTCGGTCTCGGGACGTGCTAG | 4.53 z-score |
| TCATATTTAAGGCCTATGACTGTGCTA | 0.125 z-score |
| TTGGGACTGGGGACTGGGTTAGTGCTA | -0.216 z-score |
| TCAACTCTAATATTGAGACTGTGCTAG | 0.00624 z-score |
| GACGGTTTCGGTTCCGAGACGTGCTAG | 13.2 z-score |
| GACGGTTTCGTACTGCTGACGTGCTAG | 5.12 z-score |
| TTAGGTTTCGGTACCGGTTAGTGCTAG | 15 z-score |
| TCACTAATCTCACTCTGACTGTGCTAG | 1.45 z-score |
| GACGATATCAGACGGGAGACGTGCTAG | -0.437 z-score |
| GCCGATTTCGGGTATCGAGACGTGCTA | 2 z-score |
| TTAGGTTTCGACTGTCGGTTAGTGCTA | 10.1 z-score |
| GCCGAACTGGGGACTGGAGACGTGCTA | -0.0487 z-score |
| GACGGTATCATACTGCTGACGTGCTAG | 1.21 z-score |
| CTAGGTTTCGGTCTCGGTTAGTGCTAG | 13.6 z-score |
| TTAGGTATCCTGCTCCTTTAGTGCTAG | 0.147 z-score |
| CTCTGTCTAAAATTGTTAAAGTGCTAG | 0.423 z-score |
| TCATTTCCCAAGTTTATAACTGTGCTA | 1 z-score |
| TCAGAACTGAGTCTCGATTAGTGCTAG | 2.72 z-score |
| TTAGGACTGGGTTTCGGTAAGTGCTAG | 5.55 z-score |
| CTTTCTTTATGTACTCTCTCCGTGCTA | 1.89 z-score |
| GAATGTCTTCCCCTCTCATTGTGCTAG | 0.664 z-score |
| GACGATAACGGGTATCGAGACGTGCTA | 0.769 z-score |
| TTCGAACTGAGTCTCGATTAGTGCTAG | 2.85 z-score |
| AAGCAAGGTGGAGAAGAGAAGTGCTAG | -0.723 z-score |

Series 2 — method: RNA Bind-n-Seq; molecule type: RNA; medium: in vitro; tested at: 365 nM; baseline: no-protein control; direction: higher = stronger binding
Target: RNA binding protein fox-1 homolog 2, RRM domain, GST-SBP tag (RBFOX2, Homo sapiens, UniProt O43251-10, residues 100-194)
Setting: natural RNA segment, single round, ends assumed
Constant ends, left off below: GGGAGUUCUACAGUCCGACGAUC … UGGAAUUCUCGGGUGCCAA
Residues (chain): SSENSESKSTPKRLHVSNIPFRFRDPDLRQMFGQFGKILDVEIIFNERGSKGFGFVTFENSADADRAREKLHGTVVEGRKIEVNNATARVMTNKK
| Sequence | RBNS enrichment (R) |
| --- | --- |
| UGGCUCUUACACCCAUUCCAAAUGCAGUUUAUUUUUAGACCCGAUUGCAAAUAGUGAUGUAGUUUUAACCAGUAUGGAUUAGUUCAGGGAUGAACUGCUCCCUCUAGCCU | 0.312 |
| ACGGACCGCUCCCUCUCUUCUUCAGGAGACUUUAUAAUUUACCUGAAGAGGUUUUCUUGAUAAUUUUCCUUUAAUAUGAAAUUUUCGUGCUUUAUCAGUAGCCCAGGAUA | 1.69 |
| AAAAGUGUAUAAUCUGAUACUCUAGCCCAACUGAAAUAUUAUAUCUUGGGCGUUACAGCCUUUGUCUUUUUCUUUAGUCACCUUAAUACCCAGUCCUAUGCUGUAUCUCU | 0.569 |
| UGUGGUCUUGCUGUCUCUCCCACUGUGCCCUGGCCUGGCUUGUGGCUUCUUCUUUGCCUGUUCCAAAAGCCAGGGCCCUGGGCCUGCUCUUCAUCUUGCGGGCCUCCUAG | 0.382 |
| UAGCUUGGGAUACCUUUUUAAAAACACCAGAUAUUAAAAUGUCUGGCAAGGUUAGAAUCAGACUAGAUGAUUUGCUUCUAAAAAUUAGUUUCAGUGAGUCCCAGGGACUA | 0.352 |
| AAAGGAAAGAAAAGGAAUUGGUGUGAAGAGAGAAGUUAGAGAAGGGAAAUGCAGUGAAUUACUAUCUGUGUCCAUCAGGAAGUUUGUCCUGUUAACCAAAUGGUUACUGC | 1.61 |
| AGGGGGUCUCAGGGCAGCAGCAUACAAGGUGGCAGCGGGUAACCCUGCCUUGUUCUGUCAUCCAGGGCUCCUUUGCUGCCCCGUUCUGUCACCCAGGGCUCCUAGGGGGA | 0.423 |
| UGUGUUCCAUGAUUUUGCUUAAAUUAAUACUUUUAAGUAAUGGAACUUUUUUCAAAGGCAAAUUUAAACUAUUUAAGAAAUAGCUCCUAAUACUUGGGAUCUUGUUUAGA | 0.447 |
| UUGUGGGGCUGCCCCUCCGGGUUUCUCAUCCUGUCCUUGGUGCCUUUUUCUGCCCAACAAGUCCAGGGAAGGCCGAGGUCUCAGACUCCUGGGUAGGGGUGGGGGUUUGA | 0.359 |
| UAGUUAGAAGAAGAAUCCAGUUUCUGCCUGUGAACUUAUUUGACUUUAGAUUGUCUCAUCUUGUGACUUUAUAAUGCCUGUCCCCUCCACUGGUCAAUUCAGCAUAUGGA | 0.69 |
| UAUUUCAAGAUAUGUUCUCAAGCCAAUUGUGUGCUUCUCUUGUUUCUGUGAUUGCUUUCUAGCCAAAGCGAAGCUUGUACAGGUUGAGUAUCCCUUAUCCAAAAUGCUUG | 0.419 |
| GCUCAGAGAGGAGGAUCUAUGCUGACCUCAGAAGAUGUAGAUGUUUACAUAAUUUAAUACAGAUUGAUGUUAAUACUUGUGUAUUUACAUAACCAUUUCCUUCUUGUCAC | 0.248 |

Series 3 — method: RNA Bind-n-Seq; molecule type: RNA; medium: in vitro; tested at: 15 pmol; setting: 4-mer, random 30-nt RNA, single round; added: DMSO vehicle, 2 mM AMP-PNP; baseline: input library; direction: higher = stronger binding
Target: Eukaryotic initiation factor 4A-I (EIF4A1, Homo sapiens, UniProt P60842, residues 1-406, full length assumed)
UniProt P60842, sequence (whole entry, looked up): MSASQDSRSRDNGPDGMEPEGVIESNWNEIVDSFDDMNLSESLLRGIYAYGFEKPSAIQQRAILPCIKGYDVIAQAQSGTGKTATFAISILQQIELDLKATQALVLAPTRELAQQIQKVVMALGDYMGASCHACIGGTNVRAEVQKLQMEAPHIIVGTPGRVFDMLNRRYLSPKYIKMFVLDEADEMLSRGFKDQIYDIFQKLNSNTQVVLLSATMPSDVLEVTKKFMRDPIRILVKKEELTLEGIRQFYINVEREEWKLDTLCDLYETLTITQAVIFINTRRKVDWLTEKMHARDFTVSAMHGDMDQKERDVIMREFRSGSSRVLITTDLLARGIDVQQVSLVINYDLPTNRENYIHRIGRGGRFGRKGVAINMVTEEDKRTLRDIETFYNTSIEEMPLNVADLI
| Sequence | 4-mer enrichment |
| --- | --- |
| UACG | 0.875 fold |
| UAAC | 1.2 fold |
| UCCU | 1.11 fold |
| ACGU | 0.88 fold |
| UGAG | 1.19 fold |
| UGGC | 1.01 fold |
| AACU | 1.07 fold |
| AGAC | 0.909 fold |
| GCUG | 1.2 fold |
| UAGG | 0.706 fold |
| UAUA | 0.694 fold |
| UCCC | 1.36 fold |
| AGUG | 0.849 fold |
| AGCU | 0.944 fold |
| GAAC | 1.04 fold |
| CGCG | 0.866 fold |
| CGUU | 0.923 fold |
| UAAG | 0.788 fold |
| UUAA | 0.94 fold |

Other studies, line by line — organism: Saccharomyces cerevisiae; read-out: binding; method: competitive growth deep sequencing; molecule type: peptide; tested at: concentration not given; direction: direction not given
| Molecule | system | conditions | growth enrichment score |
| --- | --- | --- | --- |
| GSPLKKLFTATGL | cyclin E1-Cln2 fusion strain | combined peptide libraries | 0.779 |
| PSSMRKICTYFHR | cyclin D3-Cln2 fusion strain | peptide library 2 | 0.0917 |
| APPRKALFTYPKG | cyclin D3-Cln2 fusion strain | Cln2 score subtracted | -0.0653 |

Excerpt of the above (series 3):
| Sequence | 4-mer enrichment |
| --- | --- |
| UAGG | 0.706 fold |
| UAUA | 0.694 fold |
| UCCC | 1.36 fold |
| AGUG | 0.849 fold |
| AGCU | 0.944 fold |
| GAAC | 1.04 fold |
| CGCG | 0.866 fold |
| CGUU | 0.923 fold |
